# Published values from different studies.
# Each line is one published result; not all experiments were run side by side. Several values in a cell are separate wells, animals, samples, runs or records. ± gives the spread as reported.
SMILES,cell line,test,setting,scale,measurement,value
O=C(NOC[C@H](O)CO)c1ccc(F)c(F)c1Nc1ccc(I)cc1F,HD-MB03,,together with: ribociclib 5 µM,baseline: ribociclib over DMSO,fold change in IC50,9.79
S=P1(c2ccccc2)CCCCC1,SW480,MTT,72 h,baseline: IC50 HaCaT over IC50 SW480,selectivity index,1
CC(c1ccccc1)(c1ccc(O)cc1)c1ccc(O)cc1,HepG2 spheroids,Hoechst flow cytometry,"10 µM, 24 h",,G2 phase cells,17.5 ± 5.58%
CC1=C(O)C(=O)C=C2C1=CC=C1[C@@]2(C)CC[C@@]2(C)[C@@H]3C[C@](C)(C(=O)O)CC[C@]3(C)CC[C@]12C,MYBPC3 iPSC cardiomyocytes,plate-normalised,"concentration not given, 24 h, hit retest",,MyBP-C level,3.5%
C[C@]12CC[C@H](O)C[C@H]1CC[C@@H]1[C@@H]2CC[C@]2(C)[C@@H](c3ccc(=O)oc3)CC[C@]12O,MCF7,"RT-qPCR, measured: NRIP1","50 nM, 48 h, unit not given, together with: estradiol",baseline: untreated,mRNA level,0.788 and 0.792 and 0.914
Cn1nccc1Nc1nccc(-c2cc3c(s2)C(C)(C)N(CCN2CCOCC2)C3=O)n1,HCT116,IncuCyte,"concentration not given, 28 (unit not given)",,PI-positive cells,9.67 count and 7.67 count and 11.8 count
Nc1ncc(-c2nc(N3CCOCC3)nc(N3CCOCC3)n2)c(C(F)F)n1,J82,,72 h,,GI50,191 nM
Oc1ccc(C(c2ccc(O)cc2)(C(F)(F)F)C(F)(F)F)cc1,HepG2 spheroids,planimetry,"10 µM, 0 to 24 h",baseline: mean area of 72 h spheroids,spheroid area increase,126%
C=C(C)[C@H]1Cc2c(ccc3c2O[C@@H]2COc4cc(OC)c(OC)cc4[C@@H]2C3=O)O1,ReNcell VM neural progenitor cells,atomic force microscopy,"0.27 µM, 24 h",,decrease in elastic modulus,~80%
Oc1ccc(C2(c3ccc(O)cc3)c3ccccc3-c3ccccc32)cc1,HepG2 spheroids,Hoechst flow cytometry,"1 µM, 24 h",,G1 phase cells,71 ± 2.43%
Cn1cncc1C1=CN(c2ncnc3[nH]cnc23)CCS1,SF-539,,CNS cancer,,CC50,100 µM
Cc1nn(-c2nc3ccc(Cl)c(Cl)c3[nH]2)c(O)c1C1OC(=O)c2ccccc21 (stereo not shown),RAW-ISG,CCK-8,100 µM,,viability,23.9% and 13.1% and 16.6% and 24.1%
COc1ccc2c(c1)[nH]c1c(C)nccc12,DU-145,"bisulfite pyrosequencing, measured: RASSF1A promoter CpG site 22",concentration not given,baseline: vehicle,methylation reduction,0%
O=S(=O)(c1ccc(O)cc1)c1ccc(O)cc1,HepG2 spheroids,Hoechst flow cytometry,"40 µM, 24 h",,S phase cells,7.58 ± 1.58%
Cc1cnc2ccc3c(nc(N)n3C)c2n1,BALB/c 3T3,,5 µM,baseline: solvent control,relative colony forming efficiency,99 ± 4%
Nc1ncnc2c1ncn2[C@@H]1O[C@@H]2COP(=O)(O)O[C@H]3[C@@H](O)[C@H](n4cnc5c(=O)[nH]cnc54)O[C@@H]3COP(=O)(O)O[C@H]2[C@H]1O,HFF-1,"RNA sequencing, measured: Reactome Adaptive Immune System",upregulated pathways,baseline: mock,fold enrichment,2.29
CC1(C)CN(CCCCC(=O)N[C@H](Cc2ccc(O)c(I)c2)C(=O)N[C@H](Cc2ccccc2)C(=O)N[C@H](CCCCNC(=O)CCCCCCC(=O)NCCCC[C@H](NC(=O)N[C@@H](CCC(=O)O)C(=O)O)C(=O)O)C(=O)O)CC[N]2CC(C)(C)[S][Tc]2(=[O])[S]1 (stereo partly shown) [technetium-99m labelled],LNCaP,,"25 nM, 1 h, 37 °C",,internalized activity,2.17 ± 0.06 %AD/mg protein
COc1cc(CCC[P+](c2ccccc2)(c2ccccc2)c2ccccc2)c(OC)c2c1OCO2.[I-],HT-29,SRB,,,TGI,-4.39 log M
C/C=C(/C)C(=O)O[C@H]1C(C)=C2[C@H]([C@@H]1OC(=O)CCCCCCC)[C@@](C)(OC(C)=O)C[C@H](OC(=O)CCC)[C@@]1(O)[C@H]2OC(=O)[C@@]1(C)O,HEK-293T,"RNA-seq GSEA, measured: Hallmark TGF-beta signaling","500 nM, 6 h",direction not given,normalized enrichment score,-1.15
CN1CC[C@]2(C)c3cc(OC(=O)Nc4ccccc4)ccc3N(C)[C@H]12,mouse primary cortical neurons,,up to 1 µM,,APP protein decrease,≤ 70%
Cc1c(O)c(O)cc2c1CC=C1[C@@]2(C)CC[C@@]2(C)[C@@H]3C[C@](C)(C(=O)O)CC[C@]3(C)CC[C@]12C,MYBPC3 iPSC cardiomyocytes,plate-normalised,"concentration not given, 24 h, hit retest",,MyBP-C level,3.9%
O=C([O-])CN1CCN(CC(=O)[O-])CCN(CC(=O)NCC2CCC(C(=O)N[C@@H](Cc3ccc4ccccc4c3)C(=O)NCCCC[C@H](NC(=O)N[C@@H](CCC(=O)O)C(=O)O)C(=O)O)CC2)CCN(CC(=O)[O-])CC1.[177Lu+3] (stereo partly shown),22Rv1,,"24 h, efflux",baseline: dose,cell retention,0.94 ± 0.2%
Nc1ccncc1,hiPSC glutamatergic neurons,"mean firing rate, multi-electrode array",,,lowest effective concentration,100 µM
Cc1cc(C(C)(C)c2ccc(O)c(C)c2)ccc1O,HepG2 spheroids,Hoechst flow cytometry,"0.1 µM, 24 h",,G2 phase cells,20.4 ± 4.54%
O=C1CCP(=S)(c2ccccc2)CC1,SW480,MTT,72 h,baseline: IC50 HaCaT over IC50 SW480,selectivity index,2.8
Oc1cc(Cl)ccc1Oc1ccc(Cl)cc1Cl,HepG2,"extracellular flux, measured: oxygen consumption rate","1 h, distribution mode 2",,point of departure,9.12 µM
O=c1cc(-c2ccccc2)oc2c(O)c(O)ccc12,"SH-SY5Y Aβ-GFP cells, TRKB shRNA",,5 µM,,neurite length,27.4 to 31.1 µm
COc1c(C)c2c(c(O)c1C/C=C(\C)CCC(=O)O)C(=O)OC2,prostate cancer cell lines,cell proliferation,average over lines,,IC50,1000 nM
CN1CCN(C2(CNC3CCN(c4cccc(-c5cc6cc(F)ccc6[nH]5)c4)CC3)CCC2)CC1,HT-29,,,,GI50,1040 nM
Cn1cc(Nc2nccc(-c3ccc4c(c3)CN(C3COC3)CC[C@H]4NC(=O)c3cn(C(C)(C)C)nn3)n2)cn1,mouse splenic B cells,measured: EGF signalling,"30 mg/kg, IgD-activated in vivo","baseline: vehicle, direction not given",pathway activation z-score,3.32
CCN(CC)c1ccc(C=NNC(=O)CSc2nc3ccccc3c(=O)n2Cc2ccc(S(N)(=O)=O)cc2)c(O)c1,HT-29,NCI five-dose screen,,,CC50,> 100 µM
C[C@@H]1C[C@@H]([C@H](O)CC2CC(=O)NC(=O)C2)C(=O)[C@@H](C)C1,LDR,"silenced CMV-GFP reporter derepression, qHTS",,,efficacy,32%
COc1ccc([C@@H](O)c2cc(-c3ncnc4cc(N5CCOCC5)ccc34)c(F)cc2Cl)nn1,M12,,"100 nM, together with: radiation 2.5 Gy",,clonogenic survival,9 ± 2%
CC(C)N1CCC(NC2CCN(c3cccc(-c4cc5cc(F)ccc5[nH]4)c3)CC2)CC1,HT-29,,,,GI50,400 nM
C[C@@H]1O[C@@H](O[C@@H]2C=C3CC[C@@H]4[C@H](CC[C@]5(C)[C@@H](c6ccc(=O)oc6)CC[C@]45O)[C@@]3(C)CC2)[C@H](O)[C@H](O)[C@H]1O,MYBPC3 iPSC cardiomyocytes,plate-normalised,"concentration not given, 24 h, hit retest",,MyBP-C level,11.3%
O=c1cc(-c2ccc(O)cc2)oc2cc(O)cc(O)c12,"SH-SY5Y Aβ-GFP cells, scrambled shRNA",,5 µM,,neurite length,32.5 to 36.5 µm
COc1c(CCC[P+](c2ccccc2)(c2ccccc2)c2ccccc2)cc2c(c1OC)OCO2.[I-],SF-268,SRB,,,GI50,-5.69 log M
O=c1c(O)c(-c2ccc(O)c(O)c2)oc2cc(O)cc(O)c12,"SH-SY5Y Aβ-GFP cells, scrambled shRNA",,5 µM,,neurite process number,3.7 to 3.8
Cc1c2ccncc2c(C)c2c1[nH]c1ccccc12,SH-SY5Y,SRB,,baseline: normal over SH-SY5Y IC50,selectivity index,0.78
CNC(=O)Oc1cc(C)c(SC)c(C)c1,SH-SY5Y,"neurite outgrowth inhibition, phase-contrast imaging","24 h, nominal concentration",,EC10,3.47 µM

# Excerpt of the above:
SMILES,cell line,test,setting,scale,measurement,value
S=P1(c2ccccc2)CCCCC1,SW480,MTT,72 h,baseline: IC50 HaCaT over IC50 SW480,selectivity index,1
CC(c1ccccc1)(c1ccc(O)cc1)c1ccc(O)cc1,HepG2 spheroids,Hoechst flow cytometry,"10 µM, 24 h",,G2 phase cells,17.5 ± 5.58%
CC1=C(O)C(=O)C=C2C1=CC=C1[C@@]2(C)CC[C@@]2(C)[C@@H]3C[C@](C)(C(=O)O)CC[C@]3(C)CC[C@]12C,MYBPC3 iPSC cardiomyocytes,plate-normalised,"concentration not given, 24 h, hit retest",,MyBP-C level,3.5%
C[C@]12CC[C@H](O)C[C@H]1CC[C@@H]1[C@@H]2CC[C@]2(C)[C@@H](c3ccc(=O)oc3)CC[C@]12O,MCF7,"RT-qPCR, measured: NRIP1","50 nM, 48 h, unit not given, together with: estradiol",baseline: untreated,mRNA level,0.788 and 0.792 and 0.914
